Results pooled from the literature.
Numbered parts are unrelated; each lists some results of a single study.

Block 1 — method: protein binding microarray; molecule type: double-stranded DNA, one strand shown; medium: in vitro; tested at: not given; relative to: not given; reading: higher = stronger binding
Target: Histone acetyltransferase KAT6A, both winged helices, GST fusion (KAT6A, Homo sapiens, UniProt Q92794, residues 1-181)
Setting: 8-mer, flanks averaged, mean of 2 arrays, mostly near background
Target sequence (chain): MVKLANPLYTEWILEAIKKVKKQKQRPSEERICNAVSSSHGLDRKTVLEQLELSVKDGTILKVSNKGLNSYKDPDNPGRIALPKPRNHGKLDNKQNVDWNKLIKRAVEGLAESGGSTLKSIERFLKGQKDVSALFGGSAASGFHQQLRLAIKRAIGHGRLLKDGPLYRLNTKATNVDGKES
Sequence	E-score
AATTTTTC	-0.055
CCCAGTAC	-0.186
CTCCCCCA	-0.156
AAGACTAG	-0.0512
TGTGAGAA	-0.143
CTGAGCAA	-0.0805
ACTAGCGG	0.286
GTGCCGAA	0.155
ACACAAAA	-0.143
CTCCTTCA	-0.169
GGAGTAAC	-0.0195
ACTTAAAT	-0.239
ATAGATGC	-0.0476
AAGCTGTG	-0.0432
GCAGCCAA	-0.102
ACCGTTTA	0.205
CAAGCCCG	0.187
AATGTTAC	0.107
CAACTTGG	-0.109

Block 2 — method: RNA Bind-n-Seq; molecule type: RNA; medium: in vitro; tested at: 200 nM; setting: whole 134-nt RNA, ends assumed; with: 150 mM LiCl; relative to: input library; reading: higher = stronger binding; all molecules: 7-deaza-guanosine replaces G
Target: Fragile X messenger ribonucleoprotein 1, C-terminal low-complexity region (Fmr1, Mus musculus, UniProt P35922)
Sequence	log2 enrichment
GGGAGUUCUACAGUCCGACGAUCAGUCCUGUGCUACACAUCGUAUGUACCGAAUCGGGAAAGGGAAAAAAAGGGUUUGGGAAAGUAUUAUGUUACGCCGUUCGGAUCUGCACUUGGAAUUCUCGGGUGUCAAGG	-2.81
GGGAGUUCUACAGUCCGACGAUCCACAGACAACACGCACCCACACAGACACAGAGGGAAGGGGUAAAGAUGGGGACAGGGUGCACAGCAGGGCGGGGUAGGACCCCAGCCCCUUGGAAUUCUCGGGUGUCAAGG	-0.313
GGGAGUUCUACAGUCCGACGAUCGUCCUGUGCUACACAUCGUAUGUACCGAAUCGGGGAAAAAAAGGGGUUUGGGGAGGGGAAAGUAUUAUGUUACGCCGUUCGGAUCUGCACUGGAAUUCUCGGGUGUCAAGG	-1.02
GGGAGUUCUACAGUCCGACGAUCUCAAGUCCUGUGCUACACAUCGUAUGUACCGAAUCGGUUUUUUUGGAAAGGAGGAAAGUAUUAUGUUACGCCGUUCGGAUCUGCACUUCCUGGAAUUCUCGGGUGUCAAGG	-0.463
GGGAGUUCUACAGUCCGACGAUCGUCCUGUGCUACACAUCGUAUGUACCGAAUCGGGGUGGGGUUUUUUUGGGGAAAGGGGAAAGUAUUAUGUUACGCCGUUCGGAUCUGCACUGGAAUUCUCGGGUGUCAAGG	0.429
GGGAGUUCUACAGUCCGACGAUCCUGUGCUACACAUCGUAUGUACCGAAUCGGGAAAAAAAGGGAAAAAAAGGGGAAAAAAAGGGAAAGUAUUAUGUUACGCCGUUCGGAUCUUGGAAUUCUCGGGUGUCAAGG	0.297
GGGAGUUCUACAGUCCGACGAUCCAAGUCCUGUGCUACACAUCGUAUGUACCGAAUCGGAAAGGGAAAGGGAAAGGGGAAAGUAUUAUGUUACGCCGUUCGGAUCUGCACUUCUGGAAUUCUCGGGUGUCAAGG	-0.279
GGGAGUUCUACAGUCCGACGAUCUGGGAGGUGGAUUUUGUUUAUUUUUUUAGCUGAUUUCCAGGGGUGGGAAUUUUUUUUUAAUAUGUGUCAUGAAUAAAGUUGUUUUUGAAAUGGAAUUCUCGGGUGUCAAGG	0.281
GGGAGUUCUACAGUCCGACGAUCUCAAGUCCUGUGCUACACAUCGUAUGUACCGAAUCGGGGCCGGCCGGGGCCGGGGAAAGUAUUAUGUUACGCCGUUCGGAUCUGCACUUCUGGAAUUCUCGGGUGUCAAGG	-0.525
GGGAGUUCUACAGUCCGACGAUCCACAGACAACACGCACCCACACAGACACAGAGGGAAGGGGUUGGGAUGGGGACAGGGUGCACAGCAGGGCGGGGUAGGAAAACAGCCCCUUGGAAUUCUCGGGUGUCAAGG	1.32
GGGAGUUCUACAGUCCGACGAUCUCCUGUGCUACACAUCGUAUGUACCGAAUCGGGGAAAAAGGGGUUUUUGGGGAAAGGGGAAAGUAUUAUGUUACGCCGUUCGGAUCUGCAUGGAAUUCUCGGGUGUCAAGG	-1.06

Block 3 — method: protein-binding microarray; molecule type: double-stranded DNA, one strand shown; medium: in vitro; tested at: 250 nM; setting: 60-bp whole probe; with: salmon DNA 0.4 mg/ml; relative to: random background probes; reading: higher = stronger binding; shared flanks, not repeated: GCCTAGCAC … GTCTTGATTCGCTTGACGCTGCTG
Target: Interferon regulatory factor 5, full length, phosphomimetic (IRF5, Homo sapiens, UniProt Q13568-2, residues 1-514, K96S/S451D/S453D/S456D/S462D)
Sequence	log fluorescence [z-score]
GGCGATTTCGGGACTGGAGACGTGCTA	1.84
TCAAAAATGATTGGTTGACTGTGCTAG	0.204
TTAGATATCGGGGATCGATTAGTGCTA	1.04
TTCACTTTCTTTAACATATTGTGCTAG	3.77
GACGGTATCGACTTTCGGGTCGTGCTA	7.76
GACGGATTCGGGTATCGGGACGTGCTA	0.567
TCATATTTATTTTTACAACTGTGCTAG	1.05
TTACGACTGGGGTTTCGGTTAGTGCTA	7.36
TTAGAACTGGGGACCGGATTAGTGCTA	-0.537
GACGAACTGAGACTGGACACGTGCTAG	-0.285
TTAGAAATCAGTATCGATTAGTGCTAG	7.88
TCTACAATGGCTTTGCCTTTGTGCTAG	-0.298
GACGGTCTCGGACTGGGCACGTGCTAG	-0.384
GTCGATTTCGGGACTGGAGACGTGCTA	2.84
TTTAGGTCCCTTTTCATGCTGTGCTAG	0.113
TTAGGAGTGCTTTTCCTTTAGTGCTAG	0.113
TTAGGTATCGCGACTGGGTTAGTGCTA	0.278
GACGATATCGGGTATCGAGAGGTGCTA	2.41

Block 4 — method: RNA Bind-n-Seq; molecule type: RNA; medium: in vitro; tested at: 365 nM; relative to: no-protein control; reading: higher = stronger binding
Target: RNA binding protein fox-1 homolog 2, RRM domain, GST-SBP tag (RBFOX2, Homo sapiens, UniProt O43251-10, residues 100-194)
Setting: natural RNA segment, single round, ends assumed
Target sequence (chain): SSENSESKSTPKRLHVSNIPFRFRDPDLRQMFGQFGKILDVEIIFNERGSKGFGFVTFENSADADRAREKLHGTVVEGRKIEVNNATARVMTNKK
Sequence	RBNS enrichment (R)
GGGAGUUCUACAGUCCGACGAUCCAGAGGAAAGCGUGCUCGAAGGAUGCCAUGGUCAGGGCAGGGCCUCCAGAGCAGGUGUUGUGCCUGGAGCUGCUCUCCUGGCCUCCUUGGAUUUAUCGCAAAAACUGAAGUGGAAUUCUCGGGUGCCAA	0.54
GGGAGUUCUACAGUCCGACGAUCAGGGCCAUCUGCCUGAAUGUAACCUGCUAGCUCUCCGAAGGCCCUGCGGGCCUGGCUUGUGUGAGCGUGUGGACAGUGGUGGCCGCGCUGUGCCUGCUCGUGUUGCCUACUGGAAUUCUCGGGUGCCAA	0.94
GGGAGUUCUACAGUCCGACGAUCUAAACAGGCUUCUGGCAGUAGCUUUGGUUCCUAUCCCAUCGAAAUUCCCCAAAGCCCUGGGCCACUGCCAUUGGGUUAGUCAAGAUGAAGGAGGAGGACUGGCUGCCUCCUGGAAUUCUCGGGUGCCAA	0.41
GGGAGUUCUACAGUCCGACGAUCUUGGGGAAUCUGAGCUUUUCCAAGGGUAAGGGGCCCAGGGUAUGCAGGCCUUCAGUGACAUCAGGUCGUUGUCAUCCUUUCCCUCCCUGACCUGUCACGAGCCUCUGCAGUGGAAUUCUCGGGUGCCAA	0.499
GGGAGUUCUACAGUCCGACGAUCACUAGUCAGGCAUUAUGCCUGAUGCAUACGCCUCCCGUGCACCCCUAUCUAGCCUUCAGAUGUCCUCCACUGCAGGUCACCCCAGGAGAUAGCAUCAAUAAUAUAGUCUCUGGAAUUCUCGGGUGCCAA	2.32
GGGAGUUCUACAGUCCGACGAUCCCACAGACCUUUGGGCUGCCUUAUAUUGUGUGUGUGUGUGGGUGUGUGUGUGUUUUGACACAAAAACAAUGCAAGCAUGUGUCAUCCAUAUUUCUCUGCAUCUUCUCUUGUGGAAUUCUCGGGUGCCAA	5.76
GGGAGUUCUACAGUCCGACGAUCCAGGCUUGCCUGAGUGUGUGGGGUGCGCAGGCGCGUGCCUGUCUUUUUGUACUGUAACUACCUCAUGGUUUGAAUGAUGAGCGUACUGCUGGUUGUAUUAACAGAGCACAUGGAAUUCUCGGGUGCCAA	0.63
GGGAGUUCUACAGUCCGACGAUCGUUUGCCUCAUUGCUUUGCUUAUUUAGCAAAUGCAUACAACGAGGAAAGGAGGUGGCUAGUGGUAUCAGUUCUCUGAUCCACUUCCAUUUAAGCUCCCCAGGAAAUCCCAUGGAAUUCUCGGGUGCCAA	0.219
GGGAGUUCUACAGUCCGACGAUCGAAAGUUUCUUUUUCUUUUGUGUUAGUCUUGCAAGUUUGUCUACCAGUAAAAGAGCAAAGUUUCCUUCCUUUCUUGUUUUCUUUUUAUUUUUUCUUUUGUUCCCUCUUCCUGGAAUUCUCGGGUGCCAA	24.2
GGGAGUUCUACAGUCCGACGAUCUGCUGGGGCCGGGCCGAGGACUCCUCAGAGGCGUUUCCUGCAGAGCCAUUAUUUUGACGCCUUUUUGUUUUCUUUUUGAAAAACAAAAUAUUAUUCCCCUGCUUCAUGGCUGGAAUUCUCGGGUGCCAA	0.555
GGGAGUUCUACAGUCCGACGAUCACAAUUUAAUGUAUUCAGUUUUGACUGUGCUUCAUAUCAUGUACCUCUCUAGUCAAAGUGGUAUUACAGACAUUCAGUGACAAUGAAUCAGUGUUAAUUCUAAAUCCUUGUGGAAUUCUCGGGUGCCAA	0.358
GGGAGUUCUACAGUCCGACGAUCGCGAGAUGAGAUGUCAUUUCUGCUUUGGAGAAGGCAAGUUUAAUGAAGAGAAAGAAAAACAGGAGCAGUUGCUACUGAGACUCCUCGAAUACCAUCGGCUGCACCUUGCAUGGAAUUCUCGGGUGCCAA	11.9

For quick reference, copied from above (block 3):
Sequence	log fluorescence [z-score]
TCAAAAATGATTGGTTGACTGTGCTAG	0.204
GACGAACTGAGACTGGACACGTGCTAG	-0.285
TTAGAACTGGGGACCGGATTAGTGCTA	-0.537
GACGGTATCGACTTTCGGGTCGTGCTA	7.76
